Results of several laboratories.
Parts stem from different laboratories: compare values within a part only.

Sample 1
Target: Phosphate system positive regulatory protein PHO4, full length, GST-tagged (PHO4, Saccharomyces cerevisiae, UniProt P07270, residues 1-312)
Method: competition protein-binding microarray
Form: double-stranded DNA, one strand shown
Matrix: in vitro
Tested at: 2 µM
Notes: whole 60-bp probe, lowest competitor level
Added: Cbf1 competitor, 0.05 µM
Reading: higher = stronger binding
Endpoint: fluorescence intensity
Constant ends, left off below: … GTCTTGATTCGCTTGACGCTGCTG
Construct (chain): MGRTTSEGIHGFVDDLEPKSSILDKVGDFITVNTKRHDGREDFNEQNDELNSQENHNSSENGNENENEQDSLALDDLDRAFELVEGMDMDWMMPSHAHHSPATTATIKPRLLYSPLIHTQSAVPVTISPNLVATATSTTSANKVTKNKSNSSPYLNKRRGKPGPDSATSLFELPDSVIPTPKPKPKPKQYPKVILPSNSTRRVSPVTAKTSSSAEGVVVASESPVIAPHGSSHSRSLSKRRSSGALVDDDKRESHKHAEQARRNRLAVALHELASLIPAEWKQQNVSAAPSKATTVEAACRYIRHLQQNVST
Oligonucleotide = AAAAAAAACCGCCATCACGTAACCGTAGCTTCCACT; value = 4480 a.u.
Oligonucleotide = CGTCCTAGTGATTGGATCGTGGGTGCCATGAGGAAG; value = 11200 a.u.
Oligonucleotide = TGTATAAATGTCCGTCACGTGGCCGTCTGTCTCTTA; value = 16600 a.u.
Oligonucleotide = AAAGCGGTAATTTGTTCAGTGGGTGCAGATATCTAT; value = 3540 a.u.
Oligonucleotide = CGGGGTTAAGTTTGCCGTGTGGGTGGCTTGCAGCAG; value = 5370 a.u.
Oligonucleotide = CGGGGTTAAGTTTGTGACGTGGGTGGCTTGCAGCAG; value = 6090 a.u.
Oligonucleotide = GTCTTGTCTCATTTTCACGTGTACTTCCCCACTTCA; value = 11700 a.u.
Oligonucleotide = GAAGCACTTGCCTTCACCGTGCGGAGCGTCGAATTG; value = 5850 a.u.
Oligonucleotide = TAAGGTATTACGAGACACATGGAATACTAAGAATAT; value = 7730 a.u.
Oligonucleotide = CATACCCAACCTTGTGCAGTGGGTGAAGATATTTGT; value = 7060 a.u.
Oligonucleotide = CGGGGTTAAGTTTGGAGTGTGGGTGGCTTGCAGCAG; value = 5430 a.u.
Oligonucleotide = TAATAACAATCTACCCACGTGGTGAAGCAACACCTA; value = 20800 a.u.
Oligonucleotide = CGCAAATGGGCATTTGATGTGACGAAAAATTTGGAC; value = 3400 a.u.
Oligonucleotide = GTTCTTACAAACAGGAACATTAGCATCATTGGATAC; value = 4260 a.u.
Oligonucleotide = GTTCGACAGTATTGGCGCATGACAAAAGACGAGCCG; value = 4810 a.u.
Oligonucleotide = CATACCCAACCTTTTCACGTGATGTAAGATATTTGT; value = 14800 a.u.
Oligonucleotide = CTTTCCCGATCTTGTCACTGCACTTTAGCACATTTG; value = 3920 a.u.

Sample 2
Target: Fragile X messenger ribonucleoprotein 1, C-terminal low-complexity region (Fmr1, Mus musculus, UniProt P35922)
Method: RNA Bind-n-Seq
Form: RNA
Matrix: in vitro
Tested at: 200 nM
Notes: whole 134-nt RNA, ends assumed
Added: 150 mM KCl
Reference: input library
Reading: higher = stronger binding
Endpoint: log2 enrichment
Constant ends, left off below: GGGAGUUCUACAGUCCGACGAUC … UGGAAUUCUCGGGUGUCAAGG
Oligonucleotide = CUGUGCUACACAUCGUAUGUACCGAAUCGGGGCCCCCCCGGGGCCCCCCCGGGCCCCCCCGGAAAGUAUUAUGUUACGCCGUUCGGAUCU; value = -1.14
Oligonucleotide = CAAGUCCUGUGCUACACAUCGUAUGUACCGAAUCGGAAAAGGGAAAAGGAAAAGGAAAGUAUUAUGUUACGCCGUUCGGAUCUGCACUUC; value = -0.617
Oligonucleotide = CUGUGCUACACAUCGUAUGUACCGAAUCGGCCCCCCCGGGCCCCCCCGGGGCCCCCCCGGGAAAGUAUUAUGUUACGCCGUUCGGAUCUG; value = -1.06
Oligonucleotide = UCAAGUCCUGUGCUACACAUCGUAUGUACCGAAUCGGUUUGGUUUUUGGAAAGGAAAGUAUUAUGUUACGCCGUUCGGAUCUGCACUUCC; value = -0.442
Oligonucleotide = UCCUGUGCUACACAUCGUAUGUACCGAAUCGGGAAAAAAGGGAAAAAAGGGGAAAAAAGGAAAGUAUUAUGUUACGCCGUUCGGAUCUGC; value = -0.455
Oligonucleotide = ACCAUGCAGGUGGGCAUCUUUGGGAAGUGGGGCAAGGGGGGGAUAGGGAGGGGGGUAACACUUUGGGAACAGUUGGUCCCAGGUCGUUUC; value = 0.515
Oligonucleotide = CCUGUGCUACACAUCGUAUGUACCGAAUCGGGGAAAAAAAGGGGUUUGGGGAAAAAGGGGAAAGUAUUAUGUUACGCCGUUCGGAUCUGC; value = 0.262
Oligonucleotide = AGUCCUGUGCUACACAUCGUAUGUACCGAAUCGGGGAAAAAAAGGGGUGGGGUGGGGAAAGUAUUAUGUUACGCCGUUCGGAUCUGCACU; value = 0.766
Oligonucleotide = CACAGACAACGCGCACCCACACAGACACAGAGGGAAGGGGUUGGGAUGGGGACAGGGUGCACAGCAGGGCGGGGUAGGACCCCAGCCCCU; value = 1.27
Oligonucleotide = CACAGACAACACGCACCCACACAGACACAGAGGGAAGGGGUUGGGAUGGGGACAGGGGGCACAGCAGGGCGGGGUAGGACCCCAGCCCCU; value = 1.03

Sample 3
Target: Histone acetyltransferase KAT6A, winged helix 1, GST fusion (KAT6A, Homo sapiens, UniProt Q92794, residues 1-85)
Method: protein binding microarray
Form: double-stranded DNA, one strand shown
Matrix: in vitro
Tested at: not given
Notes: 8-mer, flanks averaged, mean of 2 arrays, mostly near background
Reference: not given
Reading: higher = stronger binding
Endpoint: E-score
Residues (chain): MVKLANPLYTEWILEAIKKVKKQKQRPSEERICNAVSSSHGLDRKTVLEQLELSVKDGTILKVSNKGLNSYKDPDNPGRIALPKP
Oligonucleotide = AGCCGAAC; value = 0.103
Oligonucleotide = ATGTCCCG; value = 0.21
Oligonucleotide = CCATCTGA; value = -0.201
Oligonucleotide = ATAGCTCC; value = -0.128
Oligonucleotide = GTCCAAGA; value = -0.0174
Oligonucleotide = ATGGCGAA; value = 0.0259
Oligonucleotide = CACAGATG; value = -0.217
Oligonucleotide = CTAGCAGC; value = -0.214
Oligonucleotide = CCGTTTCC; value = 0.169
Oligonucleotide = GATATGAC; value = -0.0383
Oligonucleotide = AAAAAATT; value = -0.00653
Oligonucleotide = TAATCCCA; value = -0.2
Oligonucleotide = AATCGACA; value = -0.121
Oligonucleotide = AGTCTCAC; value = -0.0172
Oligonucleotide = AACGCACA; value = -0.0442
Oligonucleotide = GAGAGAAA; value = -0.25
Oligonucleotide = CTGCGAGC; value = 0.00836
Oligonucleotide = TGCACGCA; value = 0.087
Oligonucleotide = CTCATGAG; value = -0.114
Oligonucleotide = GAGCTACA; value = -0.186
Oligonucleotide = AATACTTA; value = -0.0672
Oligonucleotide = TACAATGA; value = -0.241
Oligonucleotide = ACAGCACC; value = -0.0551
Oligonucleotide = TGAAGCCA; value = -0.224
Oligonucleotide = AATACTCG; value = 0.0764

Sample 4
Target: Protein max, full length (MAX, Homo sapiens, UniProt P61244-2, residues 1-151)
Method: protein-binding microarray
Form: double-stranded DNA, one strand shown
Matrix: in vitro
Tested at: not given
Notes: k-mer, scored over probes, only values ≥0.25
Reading: higher = stronger binding
Endpoint: E-score
Oligonucleotide = CCTTGTGA; value = 0.265
Oligonucleotide = GTGGCTTA; value = 0.298
Oligonucleotide = ACGTTGCA; value = 0.295
Oligonucleotide = CACCTGCA; value = 0.352
Oligonucleotide = ATGGCCGC; value = 0.266
Oligonucleotide = GCCGCCCC; value = 0.25
Oligonucleotide = CCACACGC; value = 0.366
Oligonucleotide = AAGCCATG; value = 0.291
Oligonucleotide = CGCTCCAC; value = 0.26
Oligonucleotide = ACACGCAC; value = 0.356
Oligonucleotide = CGCCGCAC; value = 0.306
Oligonucleotide = CGTGTCAA; value = 0.347
Oligonucleotide = GCACATGA; value = 0.454
Oligonucleotide = ACGCGTGC; value = 0.446

Sample 5
Target: Interferon regulatory factor 5, full length, phosphomimetic (IRF5, Homo sapiens, UniProt Q13568-2, residues 1-514, K96S/S451D/S453D/S456D/S462D)
Method: protein-binding microarray
Form: double-stranded DNA, one strand shown
Matrix: in vitro
Tested at: 250 nM
Notes: 60-bp whole probe
Added: salmon DNA 0.4 mg/ml
Reference: random background probes
Reading: higher = stronger binding
Endpoint: log fluorescence
Constant ends, left off below: GCCTAGCAC … GTCTTGATTCGCTTGACGCTGCTG
Oligonucleotide = GACGGTTTGGGGTTTCGGGACGTGCTA; value = 1.52 z-score
Oligonucleotide = GACGATACCGGGACTGGAGACGTGCTA; value = 0.207 z-score
Oligonucleotide = TTAGGACTGGGGTTTCGGTTTGTGCTA; value = 6.19 z-score
Oligonucleotide = GACGGTTCCGGTTTTGGGACGTGCTAG; value = 1.17 z-score
Oligonucleotide = TTAGAACTGAGACTGGATTGGTGCTAG; value = -0.284 z-score
Oligonucleotide = TTAGGTATCCTACTGCTTAAGTGCTAG; value = 0.247 z-score
Oligonucleotide = TTAGATATCGGGACTGAATTAGTGCTA; value = 1.23 z-score
Oligonucleotide = GACGATATCCGTCTCGAGACGTGCTAG; value = 0.288 z-score
Oligonucleotide = TCAAGTTTATACCTTAGACTGTGCTAG; value = -0.158 z-score

Sample 6
Target: Sal-like protein 4, full length isoform B (SALL4, Homo sapiens, UniProt Q9UJQ4-2, residues 1-616)
Method: universal PBM
Form: double-stranded DNA, one strand shown
Matrix: in vitro
Tested at: not given
Notes: 8-mer, flanks averaged, mean of replicates
Reading: higher = stronger binding
Endpoint: E-score
Target sequence (chain): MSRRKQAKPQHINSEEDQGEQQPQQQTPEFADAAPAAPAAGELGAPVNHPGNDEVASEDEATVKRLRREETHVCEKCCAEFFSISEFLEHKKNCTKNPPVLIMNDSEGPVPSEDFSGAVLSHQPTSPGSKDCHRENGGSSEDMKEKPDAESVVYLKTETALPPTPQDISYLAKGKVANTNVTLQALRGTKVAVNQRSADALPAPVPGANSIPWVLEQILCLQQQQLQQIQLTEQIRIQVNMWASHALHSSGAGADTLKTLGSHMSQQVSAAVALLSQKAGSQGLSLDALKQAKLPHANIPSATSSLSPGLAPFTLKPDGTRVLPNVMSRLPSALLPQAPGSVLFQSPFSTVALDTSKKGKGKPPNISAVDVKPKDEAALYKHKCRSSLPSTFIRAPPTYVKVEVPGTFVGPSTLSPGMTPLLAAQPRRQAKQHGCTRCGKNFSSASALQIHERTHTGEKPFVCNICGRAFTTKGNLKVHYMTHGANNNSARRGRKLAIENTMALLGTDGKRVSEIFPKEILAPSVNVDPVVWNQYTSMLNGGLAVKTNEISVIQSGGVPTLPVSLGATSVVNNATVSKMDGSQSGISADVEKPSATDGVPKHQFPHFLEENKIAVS
Oligonucleotide = AGATACTA; value = 0.0524
Oligonucleotide = CAATTGAG; value = -0.163
Oligonucleotide = GGGAACCC; value = -0.308
Oligonucleotide = CAGAGCAG; value = -0.0347
Oligonucleotide = CTGACTGC; value = -0.175
Oligonucleotide = CTTGTAAA; value = 0.196
Oligonucleotide = AGAAGGAC; value = -0.175
Oligonucleotide = GAGGCATA; value = 0.0907
Oligonucleotide = CTACTCAG; value = -0.195
Oligonucleotide = AAAAGCGC; value = 0.116
Oligonucleotide = CGTTACAC; value = -0.118
Oligonucleotide = AGTGGCTC; value = -0.182
Oligonucleotide = CCATAGGA; value = -0.00899
Oligonucleotide = CACGTCTC; value = -0.093
Oligonucleotide = ACAATTTG; value = 0.129
Oligonucleotide = GCTATGTA; value = 0.151
